Published values collected from several papers.
Each numbered part is a random draw from the data of one study; scales do not carry over between parts. Substitutions count along the parent as printed.

Set 1 — method: DHFR PCA, dose-response; sample: yeast; setting: Hill fit, mean, not affinity; together with: (+)-ABA, dose series; reading: lower = more sensitive; endpoint: ABA EC50
Target: ABI1, truncated, D143A, DHFR fusion (Arabidopsis thaliana, UniProt P49597)
Parent: PYL1, truncated, DHFR fusion (Arabidopsis thaliana, UniProt Q8VZS8); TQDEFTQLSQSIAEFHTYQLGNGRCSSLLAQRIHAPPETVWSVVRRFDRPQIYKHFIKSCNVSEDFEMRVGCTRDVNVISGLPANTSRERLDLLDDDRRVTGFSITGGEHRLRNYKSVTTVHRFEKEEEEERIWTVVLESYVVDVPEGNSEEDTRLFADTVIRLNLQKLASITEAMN
V136I: 1.1 µM
E125F: 1.46 µM
P146K: 624 µM
E125I: 1.55 µM
I172M: 8.39 µM
S63F: 20.9 µM
R69T: 2.09 µM
L29K: 43.2 µM
F15D: 66.3 µM
R99L: 3.18 µM
V43N: 250 µM
E38C: 10.9 µM
F66C: 4.87 µM
T39Q: 2.6 µM
N114C: 181 µM
I79T: 10.1 µM
I57V: 2.2 µM
G108H: 215 µM

Set 2 — method: RNAcompete; form: RNA; sample: in vitro; tested at: 20 nM; setting: 7-mer, probes averaged, single round; reference: mean of 7-mers; reading: higher = stronger binding; endpoint: 7-mer Z-score
Target: PABPC1L2, full length, GST fusion (mouse, UniProt A0ABA7IW68)
Residues (chain): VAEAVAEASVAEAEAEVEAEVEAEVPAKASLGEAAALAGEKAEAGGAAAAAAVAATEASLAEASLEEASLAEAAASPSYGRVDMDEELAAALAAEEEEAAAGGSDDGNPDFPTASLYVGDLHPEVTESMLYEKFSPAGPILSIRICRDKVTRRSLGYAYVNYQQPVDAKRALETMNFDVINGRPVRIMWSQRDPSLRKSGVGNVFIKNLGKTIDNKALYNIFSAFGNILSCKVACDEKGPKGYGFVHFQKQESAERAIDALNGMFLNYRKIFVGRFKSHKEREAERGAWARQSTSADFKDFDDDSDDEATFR
GGGAUAU: 0.191
GAAAGCA: 0.637
UAGAUUG: -0.182
AGGUGAA: 0.171
CGCUAUU: -0.429
GGCAGAU: 0.207
GUCUGAA: -0.0536
GGGCUUC: -0.0863
ACGAACA: 0.178
GCGACUU: -0.117
GCUGCUG: -0.0591
GCGUGGU: 0.111
GCCUGCC: -0.258
CCUACCU: -0.4
UCAAUGU: -0.287
UUAGUGC: -0.13
UAGCAAA: 0.456

Set 3 — method: protein-binding microarray; form: hairpin DNA; sample: in vitro; tested at: not given; reference: not given; reading: higher = stronger binding; endpoint: median fluorescence
Target: Runt-related transcription factor 1, full length (RUNX1, Homo sapiens, UniProt Q01196-8, residues 1-480)
Setting: whole hairpin DNA, median over replicate spots
GAGGCCTGTTGTGGTTGGCCTCCTGGCCAACCACAACAGGCCTCACACTC (5mC at 28): 3430 a.u.
GAGGCCCACGCGCAACAGCCTCCTGGCTGTTGCGCGTGGGCCTCACACTC (5mC at 35): 1860 a.u.
GAGGCCTGTCGCGGTTGGCCTCCTGGCCAACCGCGACAGGCCTCACACTC (5mC at 10 12 32): 1870 a.u.
GAGGCCTGTCGCGGGTGGCCTCCTGGCCACCCGCGACAGGCCTCACACTC (5mC at 30): 1970 a.u.
CTCAGTTCTGTGCGCTGGACTCCTGTCCAGCGCACAGAACTGAGACACTC (5mC at 13): 1720 a.u.
GAGGCCTGTCGCGGCGGGCCTCCTGGCCCGCCGCGACAGGCCTCACACTC (5mC at 15): 2060 a.u.
GAGGCCTGTTATGGTTGGCCTCCTGGCCAACCATAACAGGCCTCACACTC: 1800 a.u.
CTCAGTTCTGTGGGCTGGACTCCTGTCCAGCCCACAGAACTGAGACACTC (5mC at 35): 1990 a.u.
GAGGCCCAAGCGCAACAGCCTCCTGGCTGTTGCGCTTGGGCCTCACACTC: 1740 a.u.
GAGGCCTCGTGCGGTTGGCCTCCTGGCCAACCGCACGAGGCCTCACACTC (5mC at 36): 3190 a.u.
CTCAGTTCTGTGGGCTCGACTCCTGTCGAGCCCACAGAACTGAGACACTC (5mC at 17): 1930 a.u.
GAGGCCTGTTGCCGTTGGCCTCCTGGCCAACGGCAACAGGCCTCACACTC (5mC at 13): 1630 a.u.
GAGGCCTGTCGCGGTTGGCCTCCTGGCCAACCGCGACAGGCCTCACACTC (5mC at 27): 2700 a.u.
CTCAGTTCTGTGCGCTGGACTCCTGTCCAGCGCACAGAACTGAGACACTC (5mC at 13 31): 1760 a.u.
GAGGCCTGTCGCGCTTGGCCTCCTGGCCAAGCGCGACAGGCCTCACACTC: 1730 a.u.
GAGGCCTCGCGCGGTTGGCCTCCTGGCCAACCGCGCGAGGCCTCACACTC (5mC at 36): 2380 a.u.
GAGGCCCAACCGCAACAGCCTCCTGGCTGTTGCGGTTGGGCCTCACACTC (5mC at 11): 2090 a.u.

Set 4 — method: RNA Bind-n-Seq; form: RNA; sample: in vitro; tested at: 365 nM; reference: no-protein control; reading: higher = stronger binding; endpoint: RBNS enrichment (R)
Target: RNA binding protein fox-1 homolog 2, RRM domain, GST-SBP tag (RBFOX2, Homo sapiens, UniProt O43251-10, residues 100-194)
Setting: natural RNA segment, single round, ends assumed
All sequences stand within: GGGAGUUCUACAGUCCGACGAUC … UGGAAUUCUCGGGUGCCAA
Target sequence (chain): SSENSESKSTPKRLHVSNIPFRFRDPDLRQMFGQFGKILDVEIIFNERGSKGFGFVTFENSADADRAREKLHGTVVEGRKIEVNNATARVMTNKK
UUACUGAGGGGGGCUCUUGCUUUAUGCGAUGCUGCCUUAUUUCCUUUAGGGUACUGUCCUGGUCAAAAUGACCUAAGGGGAAACCGUUGUUGUAAACCUCUUUAUUUUGG: 0.401
CAACAAGAUAAUUAAAUAUCUUGGUGUCUUGUUUCUAUUGUGUGGCUUUUUAAAAAUGACAAAUAUGUACUGUGUUGUGAUAAAAAGUAUUUUAUUUGUUUAAUGAUAUG: 0.928
UUGUAACCAAAUUCAUAUACUUUGUAUAAGUUUUUGAUAUCAUGAUCACAGGUGAUUCACACGUACACACAUCCACACCCACACGUGCAGCCUGAAGUGACGUCCACAGA: 0.209
GGGCCUCAGAAAUUGUCUCUUUUCUGAGUUUCAAUUUGGUUCUCCUGGAUGUUUUGCUCUGUUUUGGUACCUGUAAUAUAGGGAAACACAACUUUUUUUGGGAAAGCCCU: 0.819
CUCUUACAUGGCCACAAAGGGACACACAGUGACAAAAGGCUCGGAAUGUUACAAUGGUAAAAUGAGUGAUCUCAAAUCCACUGACAGAUAUAAAAUAGGCUUAGAGAGGA: 0.895
AGUUUAUUUACUAUGCAAUAGACAUUCAUUGUUUUGUAUCCAGCUAGCUUUGGUUUAAUAUGCCACUGCUUUGUCUUUCUGUUACACAUACAGUUUUGAUUUAUUUACAA: 0.387
CUUGCUUCUCUUCACAGCCAUAGGAUAAUGAAUACUCAGGCCUGUUUGUUAAAAUGCUAUUUUUAAAACCAUAUGAAGGUAGGAUAAUUAAUUACAAGUCCACAUCAUGA: 0.597
GUUUGGAGUGGCAGAGGCCAUACUUUCUUUGCCUCAGCUUCUCUCCUUCCUGCUGCCCUAUCCUCUGCCUUAGAAGAAAUGGGAACAGCUUGUAGGGAAGGGACAAGCUG: 0.252
GAGGUGUCGUUCUUUUGUGACGUCAGCGUAUGUGUACCUAUUCCUUUGUUUGCGGUGUACUGAGGGACCGAUGUAUCCACUGGAAUAGUUGGUACUCUCGGACAGGUUUU: 0.789
AGACCUUGUUUUGAGGAUUUUACAAGACCUUUGUAGCGAUUAGAUUUUUUUUCUACAUUGAAAAUAGAAACUGCUUCCUUUCUUCUUUCCAGUCAGCUAUUGGUCUUUCC: 0.403
CAUGAAAAUCUCUGAUUCUGACCUCCUAAGGAAAAAUGAAACCCAGAGGAUGUGGUCAUACAGGAUGGCUCCCAUGUGGGCCUAGAACCCAGGAUGCUUCACUCUUGACU: 0.483
GGCUCAGGCACCCUGGUUUUAAUCCCUUGAGGAUCUGGCAAUUGGCUUACGUAAAGAAAGGGUCACCAUUUGAGGUCCUGCCUUACCAAUUAUGUGCUGCCCAACAACUA: 0.328

A few entries again (set 2):
GUCUGAA: -0.0536
GGGCUUC: -0.0863
ACGAACA: 0.178
GCGACUU: -0.117
GCUGCUG: -0.0591
GCGUGGU: 0.111
GCCUGCC: -0.258
CCUACCU: -0.4
UCAAUGU: -0.287
UUAGUGC: -0.13
